{"data": "Assay results of several laboratories", "note": "Numbered parts are unrelated; each lists some results of a single study. “And” joins repeats or separate records; there may be more than shown."}
{"data": "Set 1", "cell line": "HEK-293T", "observed": "pseudovirus infection", "technique": "FDA-approved drug library counter-screen", "organism": "VSV pseudotyped with VSV-G", "concentration": "10 µM", "time": "16 h", "baseline": "vehicle-treated"}
{"SMILES": "NC(=O)c1cn(Cc2c(F)cccc2F)nn1", "GFP-positive cells": "98.6%"}
{"SMILES": "Nc1cccc2c1C(=O)N(C1CCC(=O)NC1=O)C2=O (stereo not drawn)", "GFP-positive cells": "114%"}
{"SMILES": "Cc1c(-c2ccc(O)cc2)n(Cc2ccc(OCCN3CCCCCC3)cc2)c2ccc(O)cc12", "GFP-positive cells": "115%"}
{"SMILES": "CN1CCC(OC(c2ccccc2)c2ccccc2)CC1", "GFP-positive cells": "116%"}
{"SMILES": "CN(C)CCCC1(c2ccc(F)cc2)OCc2cc(C#N)ccc21 (stereo not drawn)", "GFP-positive cells": "101%"}
{"SMILES": "NCC1(CC(=O)O)CCCCC1", "GFP-positive cells": "118%"}
{"SMILES": "C[C@]1(O)CC[C@H]2[C@@H]3CCC4=CC(=O)CC[C@]4(C)[C@@]3(F)[C@@H](O)C[C@@]21C", "GFP-positive cells": "104%"}
{"SMILES": "C[C@]12CCC3=C4CCC(=O)C=C4CC[C@H]3[C@@H]1CC[C@@]2(O)CC#N", "GFP-positive cells": "114%"}
{"SMILES": "COc1cc2c(Nc3ccc(Br)cc3F)ncnc2cc1OCC1CCN(C)CC1", "GFP-positive cells": "107%"}
{"SMILES": "Nc1nc2c(c(=O)[nH]1)N(C=O)C(CNc1ccc(C(=O)N[C@@H](CCC(=O)O)C(=O)O)cc1)CN2 (stereo partly drawn)", "GFP-positive cells": "95.9%"}
{"SMILES": "CCC1(c2ccccc2)C(=O)NCNC1=O", "GFP-positive cells": "111%"}
{"SMILES": "CCCC(=O)O[C@]1(C(=O)CO)CC[C@H]2[C@@H]3CCC4=CC(=O)CC[C@]4(C)[C@H]3[C@@H](O)C[C@@]21C", "GFP-positive cells": "81.3%"}
{"SMILES": "O=C(CCCCC(=O)Nc1c(I)cc(I)c(C(=O)O)c1I)Nc1c(I)cc(I)c(C(=O)O)c1I", "GFP-positive cells": "88%"}
{"SMILES": "C=CC(N)CCC(=O)O (stereo not drawn)", "GFP-positive cells": "132%"}
{"SMILES": "COC(=O)N[C@H](C(=O)N1CCC[C@H]1c1nc(-c2ccc(-c3ccc(-c4c[nH]c([C@@H]5CCCN5C(=O)[C@@H](NC(=O)OC)C(C)C)n4)cc3)cc2)c[nH]1)C(C)C", "GFP-positive cells": "105%"}
{"SMILES": "CC(C)NCC(O)c1ccc(NS(C)(=O)=O)cc1 (stereo not drawn)", "GFP-positive cells": "118%"}
{"SMILES": "CN1CCC(=C2c3ccccc3CCc3cccnc32)CC1", "GFP-positive cells": "103%"}
{"SMILES": "CO[C@H]1/C=C/O[C@@]2(C)Oc3c(C)c(O)c4c(c3C2=O)C2=NC3(CCN(CC(C)C)CC3)NC2=C(NC(=O)/C(C)=C\\C=C\\[C@H](C)[C@H](O)[C@@H](C)[C@@H](O)[C@@H](C)[C@H](OC(C)=O)[C@@H]1C)C4=O", "GFP-positive cells": "118%"}
{"SMILES": "CCCCc1ncc(/C=C(\\Cc2cccs2)C(=O)O)n1Cc1ccc(C(=O)O)cc1", "GFP-positive cells": "122%"}
{"SMILES": "CC(C)[C@H](N)C(=O)OCC(CO)OCn1cnc2c(=O)nc(N)[nH]c21 (stereo partly drawn)", "GFP-positive cells": "95.3%"}
{"SMILES": "N=C(N)N/N=C/c1c(Cl)cccc1Cl", "GFP-positive cells": "111%"}
{"SMILES": "COc1c(N2CCNC(C)C2)c(F)cc2c(=O)c(C(=O)O)cn(C3CC3)c12 (stereo not drawn)", "GFP-positive cells": "111%"}
{"SMILES": "C[C@@H](c1ncncc1F)[C@](O)(Cn1cncn1)c1ccc(F)cc1F", "GFP-positive cells": "104%"}
{"SMILES": "COc1cc2nc(N3CCN(C(=O)C4CCCO4)CC3)nc(N)c2cc1OC (stereo not drawn)", "GFP-positive cells": "99.4%"}
{"SMILES": "COCCOC(=O)C1=C(C)NC(C)=C(C(=O)OC(C)C)C1c1cccc([N+](=O)[O-])c1 (stereo not drawn)", "GFP-positive cells": "71.1%"}
{"data": "Set 2", "cell line": "HEK-293T-ACE2-TMPRSS2", "technique": "cell count", "concentration": "concentration not given"}
{"SMILES": "Cc1ccc(-c2noc(C(=O)N3CCCC3)n2)cc1S(=O)(=O)N1CC=C(c2ccccc2)CC1", "viability [%]": 77}
{"SMILES": "O=C1NC(c2cccc(F)c2)Nc2ccccc21 (stereo not drawn)", "viability [%]": 67}
{"SMILES": "Cc1cc(C)cc(NC(=O)N2c3ccccc3CC2c2noc(C3CCOCC3)n2)c1 (stereo not drawn)", "viability [%]": 73}
{"SMILES": "Cc1cnc(C)c(-c2ccc3c(c2)CC(CNC(=O)CSc2ccccn2)O3)n1 (stereo not drawn)", "viability [%]": 107}
{"SMILES": "CCn1nc(C)c(CCN(C)S(=O)(=O)c2ccc3c(c2)CC(C)N3C(C)=O)c1C (stereo not drawn)", "viability [%]": 77}
{"SMILES": "COc1cccc(Cn2ncc3ccc(C(=O)N4CCCC4)cc32)c1", "viability [%]": 124}
{"SMILES": "C[C@@H]1CC(=O)NN=C1c1ccc(NN=C(C#N)C#N)cc1", "viability [%]": 132}
{"SMILES": "COc1c(F)c(F)c(CN2CC=C(c3cnn(C)c3)CC2)c(F)c1F", "viability [%]": 88}
{"SMILES": "Cc1cc(C)n(-c2ccc(Cn3ncc(Cl)c(Cl)c3=O)cc2)n1", "viability [%]": 71}
{"SMILES": "COc1ccc(C(=O)Nc2nc3c(s2)CN(Cc2ccccc2)CC3)cc1", "viability [%]": 71}
{"SMILES": "COc1ccc(CC(=O)Nc2cccc(-n3cnnn3)c2)cc1", "viability [%]": 74}
{"SMILES": "Cc1nn(-c2ccccc2)c2sc(C(=O)NCCCN3CCC(Cc4ccccc4)CC3)cc12", "viability [%]": 68}
{"SMILES": "COc1ccccc1Nc1c2c(nc3ccc(NC(=O)c4cccnc4)cc13)CCCC2", "viability [%]": 69}
{"SMILES": "Cc1noc(C)c1CCC(=O)NC1CC(=O)N(C2CCCCCC2)C1 (stereo not drawn)", "viability [%]": 110}
{"SMILES": "ClC(Cl)(Cl)c1nc2ccccc2n2nncc12", "viability [%]": 65}
{"SMILES": "Cc1nc(N2CCCCCCC2)ncc1C(C)NC(=O)c1c(C)noc1C (stereo not drawn)", "viability [%]": 107}
{"SMILES": "COc1ccc(-c2noc(CC3CCN(C(=O)C4(c5ccc(OC)cc5)CC4)CC3)n2)cc1", "viability [%]": 81}
{"SMILES": "O=C(Cn1ncc(Cl)c(Cl)c1=O)NCCC1=CCCCC1", "viability [%]": 73}
{"SMILES": "Cc1nc(C)c(C(=O)N2CCN(C(=O)c3nc(-c4ccc(N5CCC(C)CC5)cc4)no3)CC2)s1", "viability [%]": 68}
{"SMILES": "Cc1cnc(-c2ccc(C(C)N3CCOCC3)cc2)c(Cl)c1 (stereo not drawn)", "viability [%]": 82}
{"SMILES": "CC(=O)N1CCCSc2ccc(S(=O)(=O)NCCCN3CCC(C)CC3)cc21", "viability [%]": 93}
{"SMILES": "Cc1ccc(CCNc2ncnc3scc(-c4ccc(F)cc4)c23)cc1", "viability [%]": 80}
{"SMILES": "CCCS(=O)(=O)c1ncc(Cl)c(C(=O)Nc2cccc(C(F)(F)F)c2)n1", "viability [%]": 66}
{"SMILES": "Clc1ccc(-c2noc(CN3CCN(c4ncnc5ccccc45)CC3)n2)cc1", "viability [%]": 81}
{"SMILES": "Cc1ccoc1C(=O)N1CCCn2nc(C(=O)Nc3ccccc3)cc2C1", "viability [%]": 77}
{"data": "Set 3", "SMILES": "CCOc1ccc(Nc2c3c(nc4ccccc24)CCC3)cc1", "organism": "Leishmania donovani"}
{"assay": "parasite growth", "conditions": "80 µM, intracellular, amastigote", "inhibition": "100%"}
{"test system": "THP-1 intracellular amastigotes, DD8 resistant line", "conditions": "8 µM, resistance confirmation", "inhibition": "61%"}
{"assay": "parasite growth", "conditions": "16.66 µM, promastigote", "inhibition": "62%"}
{"assay": "parasite growth", "conditions": "2 µM, intracellular, amastigote", "inhibition": "24%"}
{"assay": "parasite growth", "test system": "DD8 amphotericin B-resistant, promastigotes", "conditions": "66.66 µM", "inhibition": "100% and 99%"}
{"assay": "parasite growth", "test system": "DD8 amphotericin B-resistant, intracellular amastigotes", "conditions": "40 µM", "inhibition": "100% and 102%"}
{"assay": "parasite growth", "test system": "DD8 amphotericin B-resistant, promastigotes", "conditions": "0.016 µM", "inhibition": "2% and 1% and 5%"}
{"assay": "parasite growth", "test system": "DD8 amphotericin B-resistant, intracellular amastigotes", "conditions": "0.04 µM", "inhibition": "2% and 1% and 5%"}
{"data": "Other studies, line by line", "host": "human", "sample": "microsomes or S9", "concentration": "2 µM", "time": "0.5 h"}
{"Structure (SMILES)": "OC(c1ccccc1)(c1ccccc1)C1CCCN1 (stereo not drawn)", "remaining compound [%]": 78.9}
{"Structure (SMILES)": "NC1=NC(c2ccccc2)(c2ccccc2)C(=O)N1", "remaining compound [%]": 94.8}
{"note": "For quick reference, copied from above (set 1):"}
{"SMILES": "COC(=O)N[C@H](C(=O)N1CCC[C@H]1c1nc(-c2ccc(-c3ccc(-c4c[nH]c([C@@H]5CCCN5C(=O)[C@@H](NC(=O)OC)C(C)C)n4)cc3)cc2)c[nH]1)C(C)C", "GFP-positive cells": "105%"}
{"SMILES": "C[C@]1(O)CC[C@H]2[C@@H]3CCC4=CC(=O)CC[C@]4(C)[C@@]3(F)[C@@H](O)C[C@@]21C", "GFP-positive cells": "104%"}
{"SMILES": "Cc1c(-c2ccc(O)cc2)n(Cc2ccc(OCCN3CCCCCC3)cc2)c2ccc(O)cc12", "GFP-positive cells": "115%"}
{"SMILES": "CC(C)NCC(O)c1ccc(NS(C)(=O)=O)cc1 (stereo not drawn)", "GFP-positive cells": "118%"}
{"SMILES": "CO[C@H]1/C=C/O[C@@]2(C)Oc3c(C)c(O)c4c(c3C2=O)C2=NC3(CCN(CC(C)C)CC3)NC2=C(NC(=O)/C(C)=C\\C=C\\[C@H](C)[C@H](O)[C@@H](C)[C@@H](O)[C@@H](C)[C@H](OC(C)=O)[C@@H]1C)C4=O", "GFP-positive cells": "118%"}
{"SMILES": "COCCOC(=O)C1=C(C)NC(C)=C(C(=O)OC(C)C)C1c1cccc([N+](=O)[O-])c1 (stereo not drawn)", "GFP-positive cells": "71.1%"}
{"SMILES": "CCCC(=O)O[C@]1(C(=O)CO)CC[C@H]2[C@@H]3CCC4=CC(=O)CC[C@]4(C)[C@H]3[C@@H](O)C[C@@]21C", "GFP-positive cells": "81.3%"}
